Published values gathered from unrelated publications.
Each line is one published result; not all experiments were run side by side. ± marks the error that the study gave.
uidA: Beta-glucuronidase (uidA, Escherichia coli, UniProt P05804)
Chain of UniProt P05804 (whole entry, looked up): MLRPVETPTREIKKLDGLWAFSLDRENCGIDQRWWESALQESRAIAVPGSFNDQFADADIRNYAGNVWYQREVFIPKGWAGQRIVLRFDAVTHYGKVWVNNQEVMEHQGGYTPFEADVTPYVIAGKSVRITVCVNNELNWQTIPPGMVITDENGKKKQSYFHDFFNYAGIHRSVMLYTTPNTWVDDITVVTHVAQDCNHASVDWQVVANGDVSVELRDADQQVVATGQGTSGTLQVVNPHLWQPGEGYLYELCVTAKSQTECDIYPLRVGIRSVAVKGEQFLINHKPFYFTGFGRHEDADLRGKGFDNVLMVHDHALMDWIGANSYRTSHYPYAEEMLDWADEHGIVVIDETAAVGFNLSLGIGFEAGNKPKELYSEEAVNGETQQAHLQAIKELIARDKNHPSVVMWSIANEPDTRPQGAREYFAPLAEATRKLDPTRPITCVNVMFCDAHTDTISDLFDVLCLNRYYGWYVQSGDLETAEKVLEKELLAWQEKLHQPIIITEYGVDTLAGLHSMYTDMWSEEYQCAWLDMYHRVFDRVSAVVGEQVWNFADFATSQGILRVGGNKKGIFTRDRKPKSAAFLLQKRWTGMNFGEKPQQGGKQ
Accessory gene regulator protein C: Accessory gene regulator protein C (Staphylococcus aureus, UniProt Q309Z2)
Chain of UniProt O43148 (whole entry, looked up): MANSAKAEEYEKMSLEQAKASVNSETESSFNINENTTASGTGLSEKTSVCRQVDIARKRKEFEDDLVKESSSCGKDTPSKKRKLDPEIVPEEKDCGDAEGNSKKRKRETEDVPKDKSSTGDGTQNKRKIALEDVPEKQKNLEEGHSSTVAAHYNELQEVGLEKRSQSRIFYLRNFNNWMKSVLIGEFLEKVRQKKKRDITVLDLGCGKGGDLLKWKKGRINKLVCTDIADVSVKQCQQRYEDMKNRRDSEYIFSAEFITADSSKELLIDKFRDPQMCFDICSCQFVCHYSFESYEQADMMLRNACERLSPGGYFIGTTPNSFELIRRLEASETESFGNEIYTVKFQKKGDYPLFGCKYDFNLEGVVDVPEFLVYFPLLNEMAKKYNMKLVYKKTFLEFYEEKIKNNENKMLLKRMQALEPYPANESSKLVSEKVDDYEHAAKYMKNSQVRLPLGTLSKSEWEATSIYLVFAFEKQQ
Chain of UniProt P28564 (whole entry, looked up): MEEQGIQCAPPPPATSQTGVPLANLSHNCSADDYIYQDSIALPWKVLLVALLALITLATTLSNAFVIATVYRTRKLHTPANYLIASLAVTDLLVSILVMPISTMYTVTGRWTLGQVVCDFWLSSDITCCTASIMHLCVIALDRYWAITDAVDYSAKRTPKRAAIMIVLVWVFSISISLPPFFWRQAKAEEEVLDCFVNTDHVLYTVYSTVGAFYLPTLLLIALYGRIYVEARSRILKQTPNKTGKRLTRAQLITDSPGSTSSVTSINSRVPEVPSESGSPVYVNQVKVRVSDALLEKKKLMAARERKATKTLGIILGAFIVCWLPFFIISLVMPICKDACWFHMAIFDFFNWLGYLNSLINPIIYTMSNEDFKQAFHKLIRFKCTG
Chain of UniProt P08684 (whole entry, looked up): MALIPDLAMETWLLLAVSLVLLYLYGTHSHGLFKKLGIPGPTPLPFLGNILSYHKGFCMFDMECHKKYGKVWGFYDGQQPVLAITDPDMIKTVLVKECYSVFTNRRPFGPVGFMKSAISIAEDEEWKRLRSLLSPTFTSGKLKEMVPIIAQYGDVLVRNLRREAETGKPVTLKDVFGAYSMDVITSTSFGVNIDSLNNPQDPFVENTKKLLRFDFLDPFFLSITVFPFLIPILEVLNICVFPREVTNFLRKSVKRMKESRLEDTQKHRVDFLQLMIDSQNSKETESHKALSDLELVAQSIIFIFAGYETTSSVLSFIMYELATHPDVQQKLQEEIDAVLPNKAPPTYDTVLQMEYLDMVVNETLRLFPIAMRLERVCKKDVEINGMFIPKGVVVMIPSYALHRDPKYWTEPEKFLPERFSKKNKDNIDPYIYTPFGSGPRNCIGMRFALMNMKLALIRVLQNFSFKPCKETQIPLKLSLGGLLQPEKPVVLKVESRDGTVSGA
Chain of UniProt Q9NRF8 (whole entry, looked up): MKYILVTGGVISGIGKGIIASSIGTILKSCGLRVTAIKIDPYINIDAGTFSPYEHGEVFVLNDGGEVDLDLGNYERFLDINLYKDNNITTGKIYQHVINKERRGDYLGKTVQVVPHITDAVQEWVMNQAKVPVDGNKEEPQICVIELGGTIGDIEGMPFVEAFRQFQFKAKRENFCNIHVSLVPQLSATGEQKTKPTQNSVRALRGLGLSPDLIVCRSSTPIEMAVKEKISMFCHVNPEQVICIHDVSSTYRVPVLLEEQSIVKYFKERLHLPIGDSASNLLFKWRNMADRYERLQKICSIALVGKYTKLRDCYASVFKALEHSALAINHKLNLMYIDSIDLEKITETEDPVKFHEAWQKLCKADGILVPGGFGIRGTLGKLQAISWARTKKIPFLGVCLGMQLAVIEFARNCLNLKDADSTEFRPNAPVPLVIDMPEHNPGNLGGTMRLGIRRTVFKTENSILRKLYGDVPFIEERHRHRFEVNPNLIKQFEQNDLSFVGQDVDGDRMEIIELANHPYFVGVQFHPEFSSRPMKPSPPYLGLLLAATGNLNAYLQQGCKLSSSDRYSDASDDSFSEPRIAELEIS
Chain of UniProt O14939 (whole entry, looked up): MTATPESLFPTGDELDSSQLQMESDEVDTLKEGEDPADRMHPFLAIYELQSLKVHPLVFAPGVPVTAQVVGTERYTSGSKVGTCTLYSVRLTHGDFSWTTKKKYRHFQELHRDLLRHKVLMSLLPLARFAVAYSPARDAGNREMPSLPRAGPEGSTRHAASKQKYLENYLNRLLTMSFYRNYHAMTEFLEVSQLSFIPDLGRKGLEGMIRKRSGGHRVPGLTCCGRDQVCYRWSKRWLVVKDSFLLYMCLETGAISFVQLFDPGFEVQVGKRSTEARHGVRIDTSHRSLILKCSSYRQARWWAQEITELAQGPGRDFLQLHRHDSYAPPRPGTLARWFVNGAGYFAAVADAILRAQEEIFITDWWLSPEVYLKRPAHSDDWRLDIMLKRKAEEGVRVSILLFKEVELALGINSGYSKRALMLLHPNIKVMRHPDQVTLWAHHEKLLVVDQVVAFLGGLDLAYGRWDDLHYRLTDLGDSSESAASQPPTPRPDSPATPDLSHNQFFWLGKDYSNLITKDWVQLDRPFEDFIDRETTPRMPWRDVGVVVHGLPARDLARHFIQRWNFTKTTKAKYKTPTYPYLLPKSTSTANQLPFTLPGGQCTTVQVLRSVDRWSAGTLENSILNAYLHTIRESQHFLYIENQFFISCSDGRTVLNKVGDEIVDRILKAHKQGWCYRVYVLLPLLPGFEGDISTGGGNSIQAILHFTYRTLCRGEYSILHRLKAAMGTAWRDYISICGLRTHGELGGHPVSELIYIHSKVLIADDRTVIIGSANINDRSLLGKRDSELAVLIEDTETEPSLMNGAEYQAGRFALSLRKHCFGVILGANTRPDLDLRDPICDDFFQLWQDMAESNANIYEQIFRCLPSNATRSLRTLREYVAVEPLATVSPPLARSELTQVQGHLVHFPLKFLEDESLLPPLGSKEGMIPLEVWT
Chain of UniProt P20231 (whole entry, looked up): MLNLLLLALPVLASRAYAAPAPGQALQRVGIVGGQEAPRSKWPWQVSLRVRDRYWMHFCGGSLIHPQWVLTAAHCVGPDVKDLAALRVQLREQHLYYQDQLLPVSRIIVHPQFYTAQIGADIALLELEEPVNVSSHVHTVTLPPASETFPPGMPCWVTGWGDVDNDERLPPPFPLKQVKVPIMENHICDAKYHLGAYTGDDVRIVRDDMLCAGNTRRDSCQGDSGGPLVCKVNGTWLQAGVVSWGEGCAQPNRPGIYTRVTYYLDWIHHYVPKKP
Chain of UniProt P13346 (whole entry, unmodified, looked up): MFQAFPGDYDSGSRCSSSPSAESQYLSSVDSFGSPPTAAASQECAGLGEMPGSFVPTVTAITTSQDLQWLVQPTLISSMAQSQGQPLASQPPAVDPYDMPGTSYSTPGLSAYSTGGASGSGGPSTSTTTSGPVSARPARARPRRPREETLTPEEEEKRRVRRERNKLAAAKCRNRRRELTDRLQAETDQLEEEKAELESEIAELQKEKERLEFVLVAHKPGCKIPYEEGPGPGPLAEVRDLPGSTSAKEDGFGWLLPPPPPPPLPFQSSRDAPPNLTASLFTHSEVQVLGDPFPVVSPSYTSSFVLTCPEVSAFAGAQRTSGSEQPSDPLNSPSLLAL
Chain of UniProt P42574 (whole entry, looked up): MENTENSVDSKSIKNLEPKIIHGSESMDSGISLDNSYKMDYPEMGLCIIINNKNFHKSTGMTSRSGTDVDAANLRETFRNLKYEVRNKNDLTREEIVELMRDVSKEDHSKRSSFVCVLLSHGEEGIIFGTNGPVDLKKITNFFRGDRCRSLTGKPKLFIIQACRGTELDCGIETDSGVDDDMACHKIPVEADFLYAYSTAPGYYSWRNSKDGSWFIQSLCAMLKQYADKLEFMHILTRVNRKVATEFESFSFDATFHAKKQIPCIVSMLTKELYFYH
Chain of UniProt P08192 (whole entry, looked up): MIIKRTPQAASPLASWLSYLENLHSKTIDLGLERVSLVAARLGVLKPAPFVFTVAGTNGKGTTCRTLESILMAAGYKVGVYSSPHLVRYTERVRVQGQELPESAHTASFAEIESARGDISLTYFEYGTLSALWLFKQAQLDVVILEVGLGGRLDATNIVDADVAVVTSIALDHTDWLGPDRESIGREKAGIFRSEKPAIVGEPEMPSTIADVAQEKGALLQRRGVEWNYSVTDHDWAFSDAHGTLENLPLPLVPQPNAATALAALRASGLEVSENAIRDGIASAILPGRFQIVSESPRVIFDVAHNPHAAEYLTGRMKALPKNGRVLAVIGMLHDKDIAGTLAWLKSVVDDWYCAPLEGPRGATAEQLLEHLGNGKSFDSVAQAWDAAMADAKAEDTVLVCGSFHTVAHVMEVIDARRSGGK

SMILES	target	assay	test system	conditions	IC50
C[C@]1(COC(=O)Cc2ccc(O)c(O)c2)[C@H](C(=O)O)N2C(=O)/C(=C/c3ccccn3)[C@H]2S1(=O)=O	OXA-23 (Acinetobacter baumannii, UniProt Q9L4P2)	inhibitor	–	together with: nitrocefin	0.012 ± 0.008 µM
CN(Cc1ccccc1)CP(C)(=O)O	Urease subunit alpha (Sporosarcina pasteurii, UniProt P41020)	enzyme activity, inhibitor, indophenol colorimetric	–	20 min, pH 7.0, 37 °C, together with: 50 mM urea	> 1000 µM
CC(=O)CCC1C(=O)NC(C(C)C)C(=O)NC(Cc2cccc(O)c2)C(=O)N2CCCC(N2)C(=O)OC(C(C)=CC=CC(=O)N2CCCCO2)CC=CC=CC(O)C(C)C1O (centres unmarked)	SLCO1B3 (Homo sapiens, UniProt Q9NPD5)	transporter uptake, inhibitor	CHO	pH 7.3	5.4 µM
O=C(Nc1ccccc1)c1ccccc1O	HDAC11 (Homo sapiens, UniProt Q96DB2)	enzyme activity, inhibitor, fluorescence	–	–	> 10 µM
CC1OC(OC2CC(O)C3(CO)C4C(O)CC5(C)C(C6COC(=O)C6)CCC5(O)C4CCC3(O)C2)C(O)C(O)C1O (centres unmarked)	Na+/K+-ATPase (pig cerebral cortex)	enzyme activity, inhibitor, phosphate release colorimetric	–	30 min, 37 °C, together with: ATP-Mg 3 mM	14.4 ± 0.842 µM
O=C(O)/C=C/c1ccc(O)cc1	α-amylase	inhibitor, DNS	–	–	85 µg/mL
O=C(O[C@@H]1Cc2c(O)cc(O)cc2O[C@H]1c1cc(O)c(O)c(O)c1)c1cc(O)c(O)c(O)c1	mRNA cap guanine-N(7) methyltransferase, with RAM (RNMT, Homo sapiens, UniProt O43148)	N7-methyltransferase activity, inhibitor, Py-FLINT	–	RNMT-RAM complex, together with: SAM 20 µM	2.74 ± 0.54 µM
Cn1c(=O)c2cc(C(=O)NCCCN3CCCCCC3)sc2c2ccccc21	Bifunctional FPP/GGPP synthase (Plasmodium falciparum, UniProt Q8II79)	GGPP production, inhibitor	–	saturating substrate	9.8 µM
CC(=O)N[C@@H](Cc1ccccc1)C(=O)N[C@@H](CC(C)C)C(=O)N[C@H](C(=O)N[C@@H](CC(=O)O)C(=O)CCl)[C@@H](C)O	Caspase-3 (CASP3, Homo sapiens, UniProt P42574)	enzyme activity, inhibitor, fluorescence	–	–	56 µM
O=C(NCCN1CCC2(CC1)C(=O)NCN2C(=O)C1CC1)c1ccc2ccccc2c1	Phospholipase D1 (Homo sapiens, UniProt Q13393)	enzyme activity, inhibitor	–	–	3.1 µM
Cc1ccc(/C=C/C(=O)c2ccc(N3CCNCC3)cc2)cc1	Beta-secretase 1 (BACE1, Homo sapiens, UniProt P56817)	enzyme activity, inhibitor, fluorescence	–	with preincubation	15.5 µM
C=C(C)[C@]12C[C@@H](C)[C@@]34O[C@](Cc5ccccc5)(O[C@@H]1[C@@H]3C=C(COC(=O)Cc1cc(I)c(O)c(OC)c1)C[C@]1(O)C(=O)C(C)=C[C@@H]41)O2	TRPV1 (Homo sapiens, UniProt Q8NER1)	acid-evoked calcium influx, antagonist	HEK293, human	pH 5	0.114 ± 0.0507 µM
CNc1nc2sc3c(N4CCNCC4)nnnc3c2c2c1CCCC2	uidA	enzyme activity, inhibitor	–	–	0.029 µM
N#Cc1cn([C@@H]2O[C@H](CSCC[C@H](N)C(=O)O)[C@@H](O)[C@H]2O)c2ncnc(N)c12	PRMT5 (Homo sapiens, UniProt O14744)	enzyme activity, inhibitor, radiometric	–	–	9 µM
C[C@H](CS)C(=O)Nc1cc(-n2nccn2)cc2c1OCO2	VIM-2 (Escherichia coli, UniProt Q5U7L7)	enzyme activity, inhibitor, fluorescence	–	with preincubation	0.0251 µM
CC[C@H](C)[C@H](NC(=O)[C@@H](N)Cc1ccc(O)cc1)C(=O)N[C@@H](Cc1ccccc1)C(=O)N[C@@H](CC(N)=O)C(=O)N[C@@H](CC(C)C)C(=O)O	OPRK1 (Homo sapiens, UniProt P41145)	[3H]EKC binding displacement, whole-cell radioligand binding	T47D	together with: DADLE	5.41e-05 ± 5.7e-17 µM
CNC(=O)C1CCN(c2ccccc2NC(=O)c2ccc(-c3cc(O)ccc3C)c(C)n2)CC1	FGR (Homo sapiens, UniProt P09769)	target engagement in cells, BRET	–	–	0.545 µM
Nc1nc(N)c2nc(CNc3ccc(C4(O)CNC4=O)cc3)cnc2n1 (centres unmarked)	Dihydrofolate synthase/folylpolyglutamate synthase (Escherichia coli, UniProt P08192)	enzyme activity, inhibitor	–	–	2.6 µM
c1cc2c(s1)CCOC21CCN(Cc2ccc3c(c2)OCCO3)CC1	Cytochrome P450 3A4 (CYP3A4, Homo sapiens, UniProt P08684)	enzyme activity, inhibitor	–	together with: VG substrate	26 µM

SMILES	target	assay	test system	conditions	IC50
Nc1nc2nc3nc(N)sc3cc2s1	Chymotrypsinogen A (Bos taurus, UniProt P00766)	enzyme activity, inhibitor	–	–	29 µM
CCCC[C@@H]1NC(=O)[C@H]([C@@H](C)O)NC(=O)[C@H](CCCNC(=N)N)NC(=O)CNC(=O)CC[C@@H](C(=O)N[C@@H](C)C(=O)N[C@@H](CCCNC(=N)N)C(=O)N[C@@H](CCCCN)C(=O)N[C@@H](CO)C(=O)N[C@H](C(=O)NCC(=O)NCC(N)=O)[C@@H](C)O)NC(=O)[C@H](CCC(N)=O)NC1=O	SETD7 (Homo sapiens, UniProt Q8WTS6)	H3K4 peptide methylation, inhibitor, MALDI-TIMS-TOF MS	–	30 min, 37 °C, together with: H3K4 peptide 10 µM, SAM 30 µM	1.44 µM
O=C(O)c1cccc(Nc2nc(-c3cccnc3)nc3ccccc23)c1	ACP3 (Homo sapiens, UniProt P15309)	enzyme activity, inhibitor	–	–	8 µM
C=CCn1c(C)cc(C(=O)COn2nnc3ccc(S(=O)(=O)N(C)C)cc32)c1C	Genome polyprotein, 3C protease (rhinovirus B14, UniProt P03303)	3C protease activity, SAMDI-MS	human rhinovirus	–	> 100 µM
C/C=C1/CN2CCc3c([nH]c4ccccc34)[C@@H]2C[C@@H]1/C(=C\OC)C(=O)OC	Htr1b (Rattus norvegicus, UniProt P28564)	ligand displacement, radioligand	–	cell membranes	88.3 µM
N#CC1=C(N)OC2=C(c3sc(N)c(C#N)c3CC2)C1c1ccccc1Cl (centres unmarked)	RNMT (Homo sapiens, UniProt O43148)	enzyme activity, inhibitor	–	–	80.4 µM
NC(=S)N/N=C/c1ccc(OCc2cccc(F)c2)cc1	MAOB (Homo sapiens, UniProt P27338)	enzyme activity, inhibitor, absorbance	–	–	0.11 µM
O=C(NCCCCCn1ccc2ccc(F)cc21)Oc1ccccc1F	Faah (Rattus norvegicus, UniProt P97612)	–	rat brain homogenate	60 min, 37 °C	0.017 µM
N=C(N)NC(=O)c1ccc(C(=O)NCCCC[C@H](NC(=O)CNC(=O)CCC(=O)NN=Cc2cc(C=NNC(=O)CCC(=O)NCC(=O)N[C@@H](CCCCNC(=O)c3ccc(C(=O)NC(=N)N)[nH]3)C(=O)N[C@@H](Cc3c[nH]c4ccccc34)C(=O)N[C@@H](CCCCN)C(N)=O)cc(C=NNC(=O)CCC(=O)NCC(=O)N[C@@H](CCCCNC(=O)c3ccc(C(=O)NC(=N)N)[nH]3)C(=O)N[C@@H](Cc3c[nH]c4ccccc34)C(=O)N[C@@H](CCCCN)C(N)=O)c2)C(=O)N[C@@H](Cc2c[nH]c3ccccc23)C(=O)N[C@@H](CCCCN)C(N)=O)[nH]1	Tryptase beta-2 (TPSB2, Homo sapiens, UniProt P20231)	enzyme activity, low-affinity phase, inhibitor	–	together with: Tos-Gly-Pro-Arg-AMC substrate	29.9 ± 1.44 µM
O=C(O)CC(O)(CC(=O)O)C(=O)O	IMP-28 metallo-beta-lactamase	enzyme activity, inhibitor, FC5 fluorescent substrate	–	60 pM enzyme, 1 µM ZnSO4	> 200 µM
CC(C)C[C@H](NC(=O)[C@H](CC(N)=O)NC(=O)[C@H](CCC(=O)O)NC(=O)[C@@H](N)CS)C(=O)O	PPO3 (Agaricus bisporus, UniProt C7FF04)	enzyme activity, inhibitor	–	–	151 µM
NCCNc1nnnc2c1sc1nc(N3CCOCC3)c3c(c12)CCCC3	uidA	enzyme activity, inhibitor	–	–	2.6 µM
CC(=O)N[C@H]1CSC(=O)[C@H](Cc2ccccc2)NC(=O)[C@H](CC(C)C)NC(=O)[C@H](CO)NC(=O)[C@H](CO)NC1=O	Accessory gene regulator protein C	–	–	–	0.0117 µM
C/C(=C\C(=O)N[C@@H](CC(C)C)C(=O)N1C[C@@H](F)C[C@H]1C(=O)N[C@H](C)CCC(N)=O)c1ccc(OP(=O)(O)O)cc1	STAT3 (Homo sapiens, UniProt P40763)	phosphopeptide binding, inhibitor, fluorescence polarization	–	–	0.246 ± 0.062 µM
O=C(Cc1ccc(F)cc1)Nc1nc(-c2ccccn2)cs1	CTP synthase 2 (CTPS2, Homo sapiens, UniProt Q9NRF8)	–	–	–	> 100 µM
CC[C@H](C)[C@H](N)C(=O)N[C@@H](CC(N)=O)C(=O)N[C@H]1CSC(=O)[C@H](CC(C)C)NC(=O)[C@H](CC(C)C)NC(=O)[C@H](Cc2ccccc2)NC(=O)[C@H](CC(N)=O)NC1=O	Accessory gene regulator protein C	–	–	–	0.000294 µM
Cc1ccc(C(C)C)cc1.[Au][S]C1=NCCS1.[Cl][Ru][Cl].c1ccc(P(CP(c2ccccc2)c2ccccc2)c2ccccc2)cc1	Cathepsin B (CTSB, Homo sapiens, UniProt P07858)	enzyme activity, inhibitor, fluorescence	–	–	190 µM
O=C(NCCN1CCC2(CC1)C(=O)NCN2Cc1ccncc1)c1ccc2ccccc2c1	Phospholipase D2 (Homo sapiens, UniProt O14939)	enzyme activity, inhibitor	–	–	0.85 µM
COc1ccc(C(=O)CCl)cc1	Fosb/Jund, ΔFosB isoform (Mus musculus, UniProt P13346+P15066)	ΔFOSB/JUND DNA binding, fluorescence polarization	–	15 min, together with: TMR-cdk5 oligonucleotide	> 200 µM

Repeated from above:
SMILES	target	assay	test system	conditions	IC50
CC(=O)N[C@@H](Cc1ccccc1)C(=O)N[C@@H](CC(C)C)C(=O)N[C@H](C(=O)N[C@@H](CC(=O)O)C(=O)CCl)[C@@H](C)O	Caspase-3 (CASP3, Homo sapiens, UniProt P42574)	enzyme activity, inhibitor, fluorescence	–	–	56 µM
O=C(NCCN1CCC2(CC1)C(=O)NCN2C(=O)C1CC1)c1ccc2ccccc2c1	Phospholipase D1 (Homo sapiens, UniProt Q13393)	enzyme activity, inhibitor	–	–	3.1 µM
Cc1ccc(/C=C/C(=O)c2ccc(N3CCNCC3)cc2)cc1	Beta-secretase 1 (BACE1, Homo sapiens, UniProt P56817)	enzyme activity, inhibitor, fluorescence	–	with preincubation	15.5 µM
C=C(C)[C@]12C[C@@H](C)[C@@]34O[C@](Cc5ccccc5)(O[C@@H]1[C@@H]3C=C(COC(=O)Cc1cc(I)c(O)c(OC)c1)C[C@]1(O)C(=O)C(C)=C[C@@H]41)O2	TRPV1 (Homo sapiens, UniProt Q8NER1)	acid-evoked calcium influx, antagonist	HEK293, human	pH 5	0.114 ± 0.0507 µM
